# Experimental data gathered from unrelated publications.
# Every numbered part comes from another study and shows a few of its results, in no order.

# Block 1 — technique: protein-binding microarray; form: double-stranded DNA, one strand shown; sample: in vitro; concentration: 250 nM; notes: 60-bp whole probe; with: salmon DNA 0.4 mg/ml; baseline: random background probes; reading: higher = stronger binding; shared flanks, not repeated: GCCTAGCAC … GTCTTGATTCGCTTGACGCTGCTG
# Target: Interferon regulatory factor 5, full length, phosphomimetic (IRF5, Homo sapiens, UniProt Q13568-2, residues 1-514, K96S/S451D/S453D/S456D/S462D)
Oligonucleotide,log fluorescence
TTAGGTATAGACTATCGGTTAGTGCTA,5.66 z-score
TTACGTCTCCTACTGCTTTAGTGCTAG,0.433 z-score
CTGTACTTGAATTCTGCAAAGTGCTAG,-0.135 z-score
GATGATTCCAGTTTCGAGACGTGCTAG,5.44 z-score
TTGGGACTGCTTTTCCTTTAGTGCTAG,-0.0406 z-score
TTAGGTTTCGGGTATGGGTTAGTGCTA,8.89 z-score
TGGATACTTTGCTGAACATCGTGCTAG,-0.112 z-score
GACGAACCGGGGTTTCGAGACGTGCTA,1.19 z-score
TCAATTTTCAGTATTACACTGTGCTAG,2.93 z-score
TTAGACCTGAGTCTCGATTAGTGCTAG,0.431 z-score
GACGAACTGAGTATCGAGCCGTGCTAG,0.965 z-score
TTAAGTCTCCTTATCCTTTAGTGCTAG,0.262 z-score
TTAGAAATGGGGTTTCGATTAGTGCTA,6.41 z-score
TTAGGTTTCCTTCTGCTTTAGTGCTAG,1.14 z-score
TTAGGTATCGGACTGGGGTAGTGCTAG,1.37 z-score
TCAACTAGGGAATTTAGAACTGTGCTA,-0.0438 z-score
TTAGGTTTCGCTATCGGTTAGTGCTAG,9.96 z-score
TCATATATGAATATATAACTGTGCTAG,0.72 z-score
TTAGGTCTCGGTCCCGGTTAGTGCTAG,0.254 z-score
CCAAATCTGTGTTATTAAAATGTGCTA,0.377 z-score
TCCTTTATGTCCTGTCTACATGTGCTA,0.471 z-score
TTAGGTATCGTCTTTCGGTTAGTGCTA,8.66 z-score

# Block 2 — technique: RNA Bind-n-Seq; form: RNA; sample: in vitro; concentration: 200 nM; notes: whole 134-nt RNA, ends assumed; with: 150 mM KCl; baseline: input library; reading: higher = stronger binding
# Target: Fragile X messenger ribonucleoprotein 1, C-terminal low-complexity region (Fmr1, Mus musculus, UniProt P35922)
Oligonucleotide,log2 enrichment
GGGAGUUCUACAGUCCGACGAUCUGGACGAUGAAGAGGAAACAAUUGAAGAGGAGGAAGCAAAUGAAGGCGUUGUGGACCACCAAACAGAACUUUCUAAUUUAGCCAAGGAAGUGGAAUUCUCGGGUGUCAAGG,0.35
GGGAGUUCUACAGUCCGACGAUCCUGUGCUACACAUCGUAUGUACCGAAUCGGGGUUUUUUUGGGGUUUGGGGUUUUUUUGGGGAAAGUAUUAUGUUACGCCGUUCGGAUCUGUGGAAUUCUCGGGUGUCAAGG,-0.131
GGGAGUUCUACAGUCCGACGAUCAGUCCUGUGCUACACAUCGUAUGUACCGAAUCGGGUUUGGGAAAAAGGGAAAAAGGGAAAGUAUUAUGUUACGCCGUUCGGAUCUGCACUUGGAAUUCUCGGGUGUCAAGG,0.039
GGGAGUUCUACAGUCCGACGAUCAAGUCCUGUGCUACACAUCGUAUGUACCGAAUCGGUUUUUUUGGAAAAAAAGGAGGAAAGUAUUAUGUUACGCCGUUCGGAUCUGCACUUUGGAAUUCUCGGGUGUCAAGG,-1.07
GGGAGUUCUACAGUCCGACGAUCUGGGAGGUGGAUUUUGUUUAUUUUUUUAGCUCAUUUCCAGGGGUGGGAAUUUUUUUUUAAUAUGUGUCAAGAAUAAAGUUGUUUUUGAAAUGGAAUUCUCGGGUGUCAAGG,0.261
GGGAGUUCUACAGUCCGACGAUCUUUAAUGUCUGCGGCACAAUGCCUGUCUGUGGGACCAUCCUGGGAAAACCUGCUUCUGGCUGUGAGGCAGAAACCCAAACUGAAGAGCUCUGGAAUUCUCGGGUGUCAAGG,0.235
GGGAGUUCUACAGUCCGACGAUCUCAAGUCCUGUGCUACACAUCGUAUGUACCGAAUCGGAGGUUUUUUUGGUUUGGAAAGUAUUAUGUUACGCCGUUCGGAUCUGCACUUCCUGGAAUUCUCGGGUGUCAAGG,-0.913
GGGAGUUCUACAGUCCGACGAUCCAAGUCCUGUGCUACACAUCGUAUGUACCGAAUCGGUGGAAAAAAAGGUUUUUGGAAAGUAUUAUGUUACGCCGUUCGGAUCUGCACUUCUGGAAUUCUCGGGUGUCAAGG,-0.746
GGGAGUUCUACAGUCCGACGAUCUCUCCCCAGGAGCACAGAAAAUGGUUCUGCCCCCUCCACAGCUCCCACAGACCAGAGCCGGCCACCGUUGGAGGUGAGUCGCCCGCCCCUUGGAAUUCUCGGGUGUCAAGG,0.634
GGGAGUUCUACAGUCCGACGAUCACCAUGCAGGUGGGCAUCUAAAGGAAGUGGGGCAAGGGGGGGAUAGGGAGGGGGGUAACACUUUGGGAACAGGUGGUCCCAGGUCGUUUCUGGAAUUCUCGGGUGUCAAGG,0.875

# Block 3 — technique: protein binding microarray; form: double-stranded DNA, one strand shown; sample: in vitro; concentration: not given; baseline: not given; reading: higher = stronger binding
# Target: Histone acetyltransferase KAT6A, winged helix 1, GST fusion (KAT6A, Homo sapiens, UniProt Q92794, residues 1-85)
# Notes: 8-mer, flanks averaged, mean of 2 arrays, mostly near background
# Construct (chain): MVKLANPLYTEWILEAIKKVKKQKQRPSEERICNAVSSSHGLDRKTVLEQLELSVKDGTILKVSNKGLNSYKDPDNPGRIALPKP
Oligonucleotide,E-score
TTCCTAAA,-0.318
CCTATGGA,-0.0947
AATCGATG,-0.195
CCATATCG,0.15
CACAGAGC,-0.0959
CCACTCCC,0.00949
CCGTAAAC,0.293
ACGCTAAA,0.126
TGGAAAAA,-0.0687
CTTGGTGC,-0.128
AATCAGCG,0.158
AACCGTAG,0.0691
ACTTCACC,0.00579
GGCGGTCA,0.334
ATTCGCCG,0.276
AATCTTAC,-0.0351
ATGGTATA,-0.207
ACGTAGCA,-0.132
AGCGGGAA,0.328
ACAGCATC,-0.172
ACTCTGTG,-0.0546
TGGAATAA,-0.19
GAGTGCCA,-0.245
CTTAGCCA,-0.0993
AATTAGCC,0.0119

# Block 4 — technique: universal PBM; form: double-stranded DNA, one strand shown; sample: in vitro; concentration: 600 nM; reading: higher = stronger binding
# Target: Sal-like protein 4, full length isoform A (SALL4, Homo sapiens, UniProt Q9UJQ4, residues 1-1053)
# Chain of UniProt Q9UJQ4 (whole entry, looked up): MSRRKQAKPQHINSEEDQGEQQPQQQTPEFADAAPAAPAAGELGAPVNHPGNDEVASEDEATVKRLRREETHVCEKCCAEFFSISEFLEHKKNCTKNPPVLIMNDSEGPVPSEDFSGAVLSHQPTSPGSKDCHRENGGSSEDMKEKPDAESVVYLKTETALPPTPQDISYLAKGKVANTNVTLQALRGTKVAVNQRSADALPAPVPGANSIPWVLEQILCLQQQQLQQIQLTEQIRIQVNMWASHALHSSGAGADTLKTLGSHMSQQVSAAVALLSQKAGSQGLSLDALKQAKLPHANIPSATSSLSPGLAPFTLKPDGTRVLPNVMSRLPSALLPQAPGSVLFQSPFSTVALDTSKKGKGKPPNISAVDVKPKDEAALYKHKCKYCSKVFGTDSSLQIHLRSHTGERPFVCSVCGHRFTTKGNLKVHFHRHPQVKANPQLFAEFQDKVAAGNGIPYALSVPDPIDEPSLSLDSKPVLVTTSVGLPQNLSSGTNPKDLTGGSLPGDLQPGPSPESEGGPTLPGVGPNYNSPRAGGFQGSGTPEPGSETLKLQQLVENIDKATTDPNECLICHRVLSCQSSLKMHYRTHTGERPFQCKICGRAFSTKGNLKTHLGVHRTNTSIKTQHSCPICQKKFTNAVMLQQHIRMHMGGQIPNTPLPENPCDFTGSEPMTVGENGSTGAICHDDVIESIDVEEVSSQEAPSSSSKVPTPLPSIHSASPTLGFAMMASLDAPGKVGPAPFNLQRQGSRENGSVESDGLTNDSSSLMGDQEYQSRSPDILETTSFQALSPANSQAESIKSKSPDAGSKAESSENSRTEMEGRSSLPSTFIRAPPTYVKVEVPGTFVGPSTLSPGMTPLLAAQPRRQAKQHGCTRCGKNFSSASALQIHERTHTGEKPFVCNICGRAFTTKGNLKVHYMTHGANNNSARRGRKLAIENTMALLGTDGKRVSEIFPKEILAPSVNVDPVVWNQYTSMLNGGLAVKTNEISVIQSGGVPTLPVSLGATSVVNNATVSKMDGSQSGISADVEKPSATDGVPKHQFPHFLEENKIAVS
# Notes: 8-mer, flanks averaged, mean of replicates
Oligonucleotide,E-score
CGTGTAGA,0.0631
CAGGAGAA,0.00123
AATTCACC,0.0624
ATGGCAGC,-0.0212
CTTGTCTA,0.129
ATATACCG,0.0886
ACCCGACT,-0.12
ATCATCGA,0.0675
CTTTCGAA,0.0781
GTGGTATA,0.153
CGACGTCC,-0.328
ATACTCAC,0.1
ATCTCTGA,-0.00305
ACTACGGC,-0.214
CCGCTATA,0.122
AGCTGAAG,-0.0877
GACGACTA,-0.0578
TGGAGTAA,0.196
GATATGGA,0.312
GCTATTCC,-0.179
CCTGCGTA,-0.0989
ATTATTCC,0.249
ACACTTCT,-0.118
GTTTTGAA,0.282
CTGAGGTC,-0.259

# For quick reference, copied from above (block 4):
Oligonucleotide,E-score
GTGGTATA,0.153
GATATGGA,0.312
CCGCTATA,0.122
ATACTCAC,0.1
TGGAGTAA,0.196
ATCTCTGA,-0.00305
ACACTTCT,-0.118
ACCCGACT,-0.12
GACGACTA,-0.0578
CTGAGGTC,-0.259
